Measurements of several laboratories.
Each line is one published result; not all experiments were run side by side. Numbers after ± are the reported error. ≈ marks a conversion by molar mass, not a printed value.

Compound	target or system	test	system	setting	scale	measurement	result
COC(=O)C1=CO[C@@H](OC(C)=O)[C@@H]2C(Cn3cc(CCCN4C(=O)c5ccccc5C4=O)nn3)=CC[C@H]12	SK-N-SH	neuroprotection, MTT		0.075 µM, 24 h, with: 250 µM H2O2		viability	50.9 ± 0.4%
NC[C@@H]1O[C@H](O[C@H]2[C@@H](O)[C@H](O[C@@H]3[C@@H](O)[C@H](N)C[C@H](N)[C@H]3O[C@H]3O[C@H](CO)[C@@H](OCCO)[C@H](O)[C@H]3N)O[C@@H]2CO)[C@H](N)[C@@H](O)[C@@H]1O	ribosome with mitochondrial A1555G A site	luciferase translation, cell-free translation				IC50	81.3 ± 17.1 mg/L (≈ 123 µM)
COC(=O)C1=CO[C@@H](OC(C)=O)[C@@H]2C(Cn3cc(CON4C(=O)c5ccccc5C4=O)nn3)=CC[C@H]12	SK-N-SH	neuroprotection, MTT		0.6 µM, 24 h, with: 250 µM H2O2		viability	60.1 ± 0.1%
CCCCCCCCC(=O)NCc1ccc(O)c(OC)c1	mAb 6-AT6	antibody binding, indirect competitive ELISA		with: coating antigen 6-OVA		IC50	> 4 mg/L
CCCO[C@H]1[C@H](O)[C@@H](N)[C@@H](O[C@H]2[C@H](O[C@@H]3O[C@H](CO)[C@@H](O[C@H]4O[C@@H](CN)[C@@H](O)[C@H](O)[C@H]4N)[C@H]3O)[C@@H](O)[C@H](N)C[C@@H]2N)O[C@@H]1CO	Mycobacterium smegmatis ribosome A1408G	translation, cell-free translation			baseline: A1408G mutant over wild type	IC50 ratio	80
CC(C)CC(O)(CC(C)C)c1cn(C(=O)N2CCCC2)nn1	mouse T-cells	N-terminal labeled proteins, N-terminal enrichment proteomics, item: NDUFV2		1 nM, 6 h	baseline: DMSO	SILAC ratio	3.09 ± 0.52
Nc1ccc(/C=C/C(=O)N2CCc3c(oc4c(-c5ccc(F)cc5)cc(-c5ccc(C(=O)N6CCC(F)(F)CC6)cn5)cc34)C2)cn1	panel of 97 kinases	enzyme activity		1 µM		inhibition	no inhibition
CCCCCCCCOCc1cn(CC2=CC[C@@H]3C(C(=O)OC)=CO[C@@H](O)[C@H]23)nn1	SK-N-SH	neuroprotection, MTT		0.075 µM, 24 h, with: 250 µM H2O2		viability	51.6 ± 1.4%
O=C1CC(=O)N(c2ccccc2)c2cc(Cl)ccc2N1		electronic von Frey	wild-type mouse, CCI neuropathy	oral, 3, 10 or 30 mg/kg, 7 to 14 days after CCI		mechanical hyperalgesia	decreased
C[C@H](NC(=O)[C@H](CCC(N)=O)NC(=O)[C@H](C)NC(=O)[C@H](CCCCN)NC(=O)[C@H](CCC(N)=O)NC(=O)[C@H](C)NC(=O)[C@H](CCCCN)NC(=O)[C@H](CCC(N)=O)NC(=O)[C@H](C)NC(=O)[C@H](CCC(N)=O)NC(=O)[C@H](CCCCN)NC(=O)[C@H](C)NC(=O)[C@H](CCC(N)=O)NC(=O)[C@H](CCCCN)NC(=O)[C@H](C)NC(=O)[C@H](CCC(N)=O)NC(=O)[C@H](C)NC(=O)[C@H](CCCCN)NC(=O)[C@H](CCC(N)=O)NC(=O)[C@H](C)NC(=O)[C@H](CCCCN)NC(=O)[C@H](CO)NC(=O)[C@H](Cc1ccc(O)cc1)NC(=O)CNC(=O)CNC(=O)CN)C(=O)N[C@@H](CCCCN)C(=O)N[C@@H](CCC(N)=O)C(=O)N[C@@H](C)C(=O)N[C@@H](CCCCN)C(=O)N[C@@H](CCC(N)=O)C(=O)O		circular dichroism, item: enoxaparin concentration	PBS	0.05 mg/mL		transition midpoint	~100 µM

Some of these lines once more:
Compound	target or system	test	system	setting	scale	measurement	result
Nc1ccc(/C=C/C(=O)N2CCc3c(oc4c(-c5ccc(F)cc5)cc(-c5ccc(C(=O)N6CCC(F)(F)CC6)cn5)cc34)C2)cn1	panel of 97 kinases	enzyme activity		1 µM		inhibition	no inhibition
